Measured values of several laboratories.
Every numbered part comes from another study and shows a few of its results, in no order.

Set 1
Target: RNA binding protein fox-1 homolog 2, RRM domain, GST-SBP tag (RBFOX2, Homo sapiens, UniProt O43251-10, residues 100-194)
Method: RNA Bind-n-Seq
Molecule type: RNA
Sample: in vitro
Tested at: 365 nM
Setting: natural RNA segment, single round, ends assumed
Reference: no-protein control
Direction: higher = stronger binding
Shared flanks, not repeated: GGGAGUUCUACAGUCCGACGAUC … UGGAAUUCUCGGGUGCCAA
Residues (chain): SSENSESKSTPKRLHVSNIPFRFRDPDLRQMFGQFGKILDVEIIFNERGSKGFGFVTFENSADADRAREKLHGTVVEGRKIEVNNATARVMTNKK
| Sequence | RBNS enrichment (R) |
| --- | --- |
| CAGAAACAGAGCACCGUGCAGAACUUCCACAGCUGAUCGGCCUCGCCUCGCAGAUUUGCCAAGUAUCCGCUUCCUGUGGAAGCAAGACCAAAAGGAAAUCAACUGAGUGG | 0.507 |
| ACACAGGUAAAAUGGUUACCCUCCCUUCUUUCCUCCCCUCUGCCUUCAUGGAUCACCAACUCACGUCAUGUUUCCUUCUCUUUUCUCUGUGUGUGUGUUUAUUUAAGUUA | 1.53 |
| UUCGAUCGCUGUGCCUCCGAGGGCGCUUCUAGCUCAUCGUAGAUUUGUGAUGUCAUAGUGCAAACUGCAGUGACCGGUAAAAUGACCUGACAUGUAACCGUUUUCAGGGA | 0.231 |
| GUGGUGAAGAGUUGCCAACUACCUCCUAGGCAUCCCGCCCACCUUGCUUUGACCUCCAGCAAGGCAGGGGCAUGGAGGGACAAGGCUGCUGCUAUCAGGACCCAUUCUGG | 0.791 |
| CCACACCCGACACCAGCCCUGCUGCUUCCUAACUUAUUGCCUGGGCAGUGCCCACCAUGCACCCCUGAUGUUCGCCGUCUGGCGAGCCCUUAGCCUUGCUGUAGAGACUU | 0.794 |
| CUCCUUGCAUUUCCCCAUGCUCCCCACCCCCUGGCAAAAGGCUGGCCAUGCUCUGUUCCCAGCAGCCGCGCAGGUUUCCCCACUGGCUGCAAUGGCCCUACCAAAAGCCA | 1.56 |
| GUGUCGGUACUAAAUUGAAUAACGAGUAAAUAAUCUUACUUGGGUAGAGAUGGCCUUUGCCAACAAAGUGAACUGUUUUGGUUGUUUUAAACUCAUGAAGUAUGGGUUCA | 0.599 |
| GGGCCAGGUCUCUGUCCGUCCUCUUCCCUGCACAAGUGUGUCGAUCUUAGAUUGCCACUGCUUUCAUUGAAGACCCUCAAUGCCAAGAAACGUGUCCCUGGCCCAUAUUA | 0.381 |

Set 2
Target: Sal-like protein 4, full length isoform B (SALL4, Homo sapiens, UniProt Q9UJQ4-2, residues 1-616)
Method: universal PBM
Molecule type: double-stranded DNA, one strand shown
Sample: in vitro
Tested at: not given
Setting: 8-mer, flanks averaged, mean of replicates
Direction: higher = stronger binding
Target sequence (chain): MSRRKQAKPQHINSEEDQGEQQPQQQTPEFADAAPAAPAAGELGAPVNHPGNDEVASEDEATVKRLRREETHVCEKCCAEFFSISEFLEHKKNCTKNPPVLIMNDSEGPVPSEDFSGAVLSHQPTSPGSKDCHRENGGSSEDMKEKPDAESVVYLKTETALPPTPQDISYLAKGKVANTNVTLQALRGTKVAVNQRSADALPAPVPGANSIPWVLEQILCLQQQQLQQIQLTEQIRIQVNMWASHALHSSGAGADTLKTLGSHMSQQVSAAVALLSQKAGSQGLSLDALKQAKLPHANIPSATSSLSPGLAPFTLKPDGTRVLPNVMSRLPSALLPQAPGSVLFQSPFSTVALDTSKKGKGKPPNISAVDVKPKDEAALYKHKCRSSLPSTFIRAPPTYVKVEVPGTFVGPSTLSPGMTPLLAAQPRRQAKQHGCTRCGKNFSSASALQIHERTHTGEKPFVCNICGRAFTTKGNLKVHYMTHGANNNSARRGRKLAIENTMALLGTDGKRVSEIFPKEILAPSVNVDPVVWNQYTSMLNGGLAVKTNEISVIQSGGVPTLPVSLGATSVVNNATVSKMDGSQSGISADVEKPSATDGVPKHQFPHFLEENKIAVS
| Sequence | E-score |
| --- | --- |
| AATTGTAT | 0.269 |
| GTAAGTGA | 0.114 |
| ATCCTGCA | 0.0776 |
| ATAGTACC | 0.102 |
| AAAAAATG | 0.354 |
| AGAAGTCG | -0.139 |
| CTACAAAG | 0.152 |
| AACCCTGG | -0.124 |
| GACATCCA | 0.00054 |
| CGGGTGAC | -0.288 |
| TCACCGGA | -0.158 |
| GACAGATA | 0.0646 |
| GACATGTA | 0.236 |
| ACCTCCCG | -0.219 |
| TCAAGACA | 0.0559 |
| AACTGTTC | -0.0911 |
| CCAGATCG | -0.208 |
| CCTATACA | 0.196 |
| CAAGCTGA | -0.128 |
| GGACAACC | -0.255 |
| GAAGGCCA | -0.243 |
| CTCAAATA | 0.23 |
| TACAAGGA | -0.0481 |

Set 3
Target: Protein max, full length (MAX, Homo sapiens, UniProt P61244-2, residues 1-151)
Method: protein-binding microarray
Molecule type: double-stranded DNA, one strand shown
Sample: in vitro
Tested at: not given
Setting: k-mer, scored over probes, only values ≥0.25
Direction: higher = stronger binding
| Sequence | E-score |
| --- | --- |
| CCACACCA | 0.254 |
| CACATTGG | 0.306 |
| GAGCGTGC | 0.377 |
| CACGTTGG | 0.436 |
| ATACACGA | 0.252 |
| GCGCACAC | 0.288 |
| CATGCGTC | 0.438 |
| CGCCACCC | 0.317 |
| GCATGCCC | 0.405 |
| GCATATGA | 0.298 |
| CCTTGTGC | 0.274 |
| CACGAGTA | 0.398 |
| CTCCCCAA | 0.289 |
| GCTGCTCA | 0.257 |
| ACACGAGT | 0.41 |
| CCACGCTC | 0.395 |
| CACCTGTC | 0.331 |
| ACCACATG | 0.477 |
| GCCACCCC | 0.259 |
| ATGCGTGA | 0.355 |

Set 4
Target: Ras GTPase-activating protein-binding protein 1, full length (G3BP1, Homo sapiens, UniProt Q13283)
Sequence of UniProt Q13283 (whole entry, looked up): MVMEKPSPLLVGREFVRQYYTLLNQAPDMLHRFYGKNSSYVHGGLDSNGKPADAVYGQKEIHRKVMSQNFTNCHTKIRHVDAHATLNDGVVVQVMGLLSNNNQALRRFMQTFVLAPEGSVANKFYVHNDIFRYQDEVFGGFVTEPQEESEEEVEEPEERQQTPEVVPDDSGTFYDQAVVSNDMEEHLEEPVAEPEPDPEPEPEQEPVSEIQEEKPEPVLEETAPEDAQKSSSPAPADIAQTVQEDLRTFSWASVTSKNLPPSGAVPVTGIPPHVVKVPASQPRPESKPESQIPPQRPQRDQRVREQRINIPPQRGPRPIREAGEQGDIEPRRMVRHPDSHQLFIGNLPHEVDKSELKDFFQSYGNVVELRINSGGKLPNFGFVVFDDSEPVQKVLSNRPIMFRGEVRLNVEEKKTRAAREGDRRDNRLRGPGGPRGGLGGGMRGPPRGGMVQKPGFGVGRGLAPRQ
Method: RNA Bind-n-Seq
Molecule type: RNA
Sample: in vitro
Tested at: 200 nM
Setting: whole 134-nt RNA, ends assumed
Added: 150 mM LiCl
Reference: input library
Direction: higher = stronger binding
All molecules: 7-deaza-guanosine replaces G
Shared flanks, not repeated: GGGAGUUCUACAGUCCGACGAUC … UGGAAUUCUCGGGUGUCAAGG
| Sequence | log2 enrichment |
| --- | --- |
| UCGGAUGGCUUCGCAUUUCCCCAAUACCCCAUUAAACCGUAUCAUCUGAAGAGGAUCCACAGAGCUGUCUUACAUGGUAAUCUAGAGAAA | 0.96 |
| AAGUCCUGUGCUACACAUCGUAUGUACCGAAUCGGGUGGGUUUUUUUGGGAAAGGGAAAGUAUUAUGUUACGCCGUUCGGAUCUGCACUU | 0.369 |
| UGGCAUGGAUCCAGUGGGCUGAGACCACCCUCAUUCAGCGGGAUCAGGAGCCAAUCCCGCAGAACAUUGACCGAGUUAAAGCCCUUAUCG | -1.82 |
| CUGUGCUACACAUCGUAUGUACCGAAUCGGGGUUUUUUUGGGUUUUUUUGGUUUUUUUGGGAAAGUAUUAUGUUACGCCGUUCGGAUCUG | 1.1 |
| UAACUUUAGAGGAGGAUCUGAUGGAUAUGGCUGUGGACGUGGAUUUGGGGAUGGCUAUAAUGGGUAUGGAGGAGGACCUGGAGGUGGCAA | 0.175 |
| UUAUGGAGUUUGGCCCUGAGGACAUGCUGCUGGGCAUGGAUGAGGCUGAAGAUGAUGAGGACCUGGAGGCUGAGCUGCUGGCUCUCACAG | -1.37 |
| CUCAAGUCCUGUGCUACACAUCGUAUGUACCGAAUCGGGGUUGGGGUUGGUUGGAAAGUAUUAUGUUACGCCGUUCGGAUCUGCACUUCC | -0.0138 |
| UGGCCCUGGUGGCAUGCGGGGAGGAAGUGGUGGCCUCAUGGAUCGUGGUGGUCCCGGUGGAAUGUUCAGAGGUGGCCGUGGUGGAGACAG | 0.114 |

Repeated from above (set 1):
| Sequence | RBNS enrichment (R) |
| --- | --- |
| UUCGAUCGCUGUGCCUCCGAGGGCGCUUCUAGCUCAUCGUAGAUUUGUGAUGUCAUAGUGCAAACUGCAGUGACCGGUAAAAUGACCUGACAUGUAACCGUUUUCAGGGA | 0.231 |
| GGGCCAGGUCUCUGUCCGUCCUCUUCCCUGCACAAGUGUGUCGAUCUUAGAUUGCCACUGCUUUCAUUGAAGACCCUCAAUGCCAAGAAACGUGUCCCUGGCCCAUAUUA | 0.381 |
| ACACAGGUAAAAUGGUUACCCUCCCUUCUUUCCUCCCCUCUGCCUUCAUGGAUCACCAACUCACGUCAUGUUUCCUUCUCUUUUCUCUGUGUGUGUGUUUAUUUAAGUUA | 1.53 |
| GUGUCGGUACUAAAUUGAAUAACGAGUAAAUAAUCUUACUUGGGUAGAGAUGGCCUUUGCCAACAAAGUGAACUGUUUUGGUUGUUUUAAACUCAUGAAGUAUGGGUUCA | 0.599 |
| CAGAAACAGAGCACCGUGCAGAACUUCCACAGCUGAUCGGCCUCGCCUCGCAGAUUUGCCAAGUAUCCGCUUCCUGUGGAAGCAAGACCAAAAGGAAAUCAACUGAGUGG | 0.507 |
| CCACACCCGACACCAGCCCUGCUGCUUCCUAACUUAUUGCCUGGGCAGUGCCCACCAUGCACCCCUGAUGUUCGCCGUCUGGCGAGCCCUUAGCCUUGCUGUAGAGACUU | 0.794 |
| CUCCUUGCAUUUCCCCAUGCUCCCCACCCCCUGGCAAAAGGCUGGCCAUGCUCUGUUCCCAGCAGCCGCGCAGGUUUCCCCACUGGCUGCAAUGGCCCUACCAAAAGCCA | 1.56 |
